Measured values gathered from unrelated publications.
Several values in a cell are separate wells, animals, samples, runs or records. Numbers after ± are the reported error.
Chain of UniProt Q96KB5 (whole entry, looked up): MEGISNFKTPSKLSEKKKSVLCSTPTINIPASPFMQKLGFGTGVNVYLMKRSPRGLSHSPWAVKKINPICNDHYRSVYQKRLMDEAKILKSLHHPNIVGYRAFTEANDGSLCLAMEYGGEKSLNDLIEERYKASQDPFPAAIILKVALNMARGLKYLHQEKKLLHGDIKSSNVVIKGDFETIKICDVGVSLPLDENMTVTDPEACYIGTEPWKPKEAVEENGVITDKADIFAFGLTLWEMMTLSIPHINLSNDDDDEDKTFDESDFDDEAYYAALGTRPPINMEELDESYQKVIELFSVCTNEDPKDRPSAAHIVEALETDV
Chain of UniProt P49662 (whole entry, looked up): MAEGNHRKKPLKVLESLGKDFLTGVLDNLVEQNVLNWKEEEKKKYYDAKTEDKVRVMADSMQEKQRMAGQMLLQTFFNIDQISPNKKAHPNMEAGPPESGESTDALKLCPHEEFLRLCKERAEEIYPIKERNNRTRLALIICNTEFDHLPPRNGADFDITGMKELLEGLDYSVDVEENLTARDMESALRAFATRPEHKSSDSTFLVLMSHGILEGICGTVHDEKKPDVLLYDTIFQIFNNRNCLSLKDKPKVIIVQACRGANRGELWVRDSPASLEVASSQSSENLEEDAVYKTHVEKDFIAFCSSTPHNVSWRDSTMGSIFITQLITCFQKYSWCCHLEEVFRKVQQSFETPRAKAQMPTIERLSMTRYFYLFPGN
Chain of UniProt P39656 (whole entry, looked up): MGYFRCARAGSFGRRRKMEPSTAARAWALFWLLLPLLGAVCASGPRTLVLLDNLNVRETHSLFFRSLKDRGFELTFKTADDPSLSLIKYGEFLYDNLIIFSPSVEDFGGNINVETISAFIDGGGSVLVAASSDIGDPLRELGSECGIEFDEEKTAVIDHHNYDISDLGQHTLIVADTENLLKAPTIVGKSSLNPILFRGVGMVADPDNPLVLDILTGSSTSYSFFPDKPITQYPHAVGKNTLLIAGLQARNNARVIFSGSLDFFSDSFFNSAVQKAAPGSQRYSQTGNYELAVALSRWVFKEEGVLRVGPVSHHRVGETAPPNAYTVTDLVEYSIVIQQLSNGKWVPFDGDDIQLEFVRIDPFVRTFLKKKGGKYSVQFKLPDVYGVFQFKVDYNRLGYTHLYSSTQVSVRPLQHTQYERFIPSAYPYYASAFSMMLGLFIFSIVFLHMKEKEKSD

`C=CCNc1c(O)cc2c(O)c1C[C@@H](C)C[C@H](OC)[C@H](O)[C@@H](C)/C=C(\C)[C@H](OC(N)=O)[C@@H](OC)/C=C\C=C(/C)C(=O)N2`: “objective response rate” 3% (RECIST v1.0; human GIST; dose not given).
`COc1cc(Nc2ncc(F)c(Nc3ccc4c(n3)NC(=O)C(C)(C)O4)n2)cc(OC)c1OC` gave an IC50 of greater than 10 µM (Caspase-4 (CASP4, Homo sapiens, UniProt P49662)).
With `Cc1cn(-c2cc(NC(=O)c3ccc(C)c(Nc4nccc(-c5cccnc5)n4)c3)cc(C(F)(F)F)c2)cn1` the MMSE score was 18.8 ± 4 (Alzheimer's disease patients; dose not given, baseline, group mean; direction not given).
`COc1cc2c(Oc3ccc4[nH]c(C)cc4c3F)ccnc2cc1OCC1(N)CC1`: “grade 3 sinus tachycardia” 0% (paediatric recurrent refractory sarcoma; 8 mg).
With `COc1ccc(N2C(=O)N(c3c(C)cccc3Cl)Cc3cnc(Nc4ccc(C5CCN(C)CC5)cc4OC)nc32)nc1` the inhibition was 1% (PBK (Homo sapiens, UniProt Q96KB5); kinase activity; 0.5 µM).
The MIC90 of `CC[C@H](C)[C@H](NC(=O)[C@H](C)NC(=O)[C@H](CCCCN)NC(=O)[C@H](CC(C)C)NC(=O)[C@H](C)NC(=O)[C@@H](NC(=O)[C@H](Cc1c[nH]cn1)NC(=O)[C@H](CC(C)C)NC(=O)[C@@H](NC(=O)[C@@H](NC(=O)[C@H](CCCCN)NC(=O)[C@H](C)NC(=O)[C@H](C)NC(=O)[C@H](CO)NC(=O)[C@H](CCCCN)NC(=O)[C@H](Cc1ccccc1)NC(=O)[C@@H](NC(=O)[C@H](CCCCN)NC(=O)[C@H](CC(C)C)NC(=O)[C@H](Cc1ccccc1)NC(=O)[C@H](CO)NC(=O)[C@H](CCCCN)NC(=O)[C@H](Cc1c[nH]c2ccccc12)NC(=O)[C@H](CCCCN)NC(C)=O)[C@@H](C)O)[C@@H](C)O)C(C)C)[C@@H](C)O)C(=O)N[C@@H](CO)C(=O)N[C@@H](CO)C(N)=O` is reported as greater than 64 µg/mL (Enterobacter aerogenes; 40 strains).
The tissue uptake of `C[C@@H](O)[C@@H](CO)NC(=O)[C@@H](CCCNC(=N)N)NC(=O)[C@@H]1CCCN1C(=O)[C@@H]1CSSC[C@H](NC(=O)[C@H](Cc2ccccc2)NC(=O)CN2CCN(CC(=O)O)CCN(CC(=O)O)CCN(CC(=O)O)CC2)C(=O)N[C@@H](Cc2ccc(O)cc2)C(=O)N[C@@H](Cc2ccccc2)C(=O)N[C@@H](CCC(N)=O)C(=O)N[C@@H](CC(N)=O)C(=O)N1` [gallium-68 labelled] is reported as 0.6 %ID/g (Wistar rat, lungs; intravenous, 8 MBq, 60 min, group mean).
For `FC(F)(F)c1ccc2c(c1)[C@@H]1CNC[C@H]2C1`, the ethanol intake was 2 ± 0.2 g/kg (two-bottle choice; Wistar rat, intermittent 20% ethanol access; subcutaneous, 10 mg/kg, 6 h).
`CC[C@H](C)[C@H](NC(=O)[C@H](Cc1ccccc1)NC(=O)[C@H](CCC(=O)O)NC(=O)[C@H](CCCNC(=N)N)NC(=O)[C@H](C)NC(=O)[C@H](C)NC(=O)[C@H](CCC(N)=O)NC(=O)[C@H](CCC(=O)O)NC(=O)[C@H](CCC(=O)O)NC(=O)[C@H](CC(C)C)NC(=O)[C@H](Cc1ccc(O)cc1)NC(=O)[C@H](CO)NC(=O)[C@H](CO)NC(=O)[C@@H](NC(=O)[C@H](CC(=O)O)NC(=O)[C@H](CO)NC(=O)[C@@H](NC(=O)[C@H](Cc1ccccc1)NC(=O)[C@@H](NC(=O)CNC(=O)[C@H](CCC(=O)O)NC(=O)[C@H](C)NC(=O)CCc1c[nH]cn1)[C@@H](C)O)[C@@H](C)O)C(C)C)C(=O)N[C@@H](C)C(=O)N[C@@H](Cc1c[nH]c2ccccc12)C(=O)N[C@@H](CC(C)C)C(=O)N[C@H](C(=O)N[C@@H](CCCNC(=N)N)C(=O)NCC(=O)N[C@@H](CCCNC(=N)N)C(=O)N[C@@H](CCCCNC(=O)COCCOCCNC(=O)COCCOCCNC(=O)CC[C@H](NC(=O)CCCCCCCCCCCCCCCCC(=O)O)C(=O)O)C(=O)NCC(=O)NCC(=O)N[C@@H](CO)C(=O)N[C@@H](CCCCNc1c(NCCCCCN(O)C(=O)CCC(=O)NCCCCCN(O)C(=O)CCC(=O)NCCCCCN(O)C(C)=O)c(=O)c1=O)C(=O)O)C(C)C` [zirconium-89 labelled] gave a tissue uptake of 0.27 %ID/g (gamma counting; rat, skin of neck; subcutaneous, 3 nmol/kg, 24 h).
For `C[C@H]1O[C@@H](O[C@H]2CC[C@@]3(C)[C@@H](CC[C@]4(C)[C@@H]3C=C[C@]35OC[C@@]6(CCC(C)(C)C[C@H]63)[C@@H](O)C[C@]54C)[C@]2(C)CO)[C@H](O)[C@@H](O[C@@H]2O[C@H](CO)[C@@H](O)[C@H](O)[C@H]2O)[C@H]1O`, the steatosis area was 21.8% and 21.4% and 23.6% and 19.4% and 17.8% and 20.7% and 21.9% and 22.6% (H&E staining; hepatic SIRT1 knockdown mice, chronic-plus-binge ethanol, liver; dose not given, AAV8-TBG-shRNA, high dose).
With `C[C@H]1CN(c2n[nH]c3nc(N[C@H]4CC[C@H](NS(=O)(=O)CCC(F)(F)F)CC4)ncc23)CCO1` the remaining binding was 1.08 (Dolichyl-diphosphooligosaccharide--protein glycosyltransferase 48 kDa subunit (Homo sapiens, UniProt P39656); Kinobeads competition, measured: DDOST; 0.032 µM, unit not given; reference: vehicle).
`CS(=O)(=O)c1ccc(-c2nnc(/C=C/c3nnc(-c4ccc(C#N)cc4)o3)n2-c2ccccc2Cl)nc1` — result for “normalized enrichment score”: -2.41 (RNA-seq GSEA, measured: FALLER_ENTEROCYTE_PRO_MOUSE; organoids, small intestinal, Apc Q1405X, mouse; dose not given, wild-type organoids; reference: DMSO, direction not given).
Under “heart rate change”, `CC(C)C1CCC(N2CCC(N3C(=O)C(=O)c4ccccc43)CC2)CC1` (stereo not shown) is recorded as “no effect” (conscious Sprague-Dawley rats; iv, 30 nmol/kg).
`Cc1nc(Nc2ccc(CC(=O)O)cc2)nc(Nc2ccc(F)c(C(F)(F)F)c2)c1C` — result for “fasting blood glucose”: “decreased” (C57BL/6J mice, high-fat diet; intraperitoneal, 0.3 mg/kg daily, 60% fat diet 12 weeks, dosed last four; reference: vehicle).
For `COc1c(CCC[P+](c2ccccc2)(c2ccccc2)c2ccccc2)cc2c(c1OC)OCO2.[I-]`, the TGI was -4.72 log M (HT-29; SRB).
For `CCCCCCCCCCCCCCCCCCOCC(COP(=O)([O-])OCC[N+](C)(C)C)OC` (stereo not shown), the inhibition was 63% (calcium response, decay phase; N2a, mouse; 10 µM, with: BzATP 300 µM).
`CN1CC[C@@H](c2c(O)cc(O)c3c(=O)cc(-c4ccc(C(F)(F)F)cc4Cl)oc23)[C@@H]1CO` — result for “patients with adverse event”: 0% (measured: urinary incontinence; B-cell malignancies or AML; oral, 100 mg, grade 3 to 4, continuous dosing).
For `CO[C@H]1C[C@@H]2CC[C@@H](C)[C@@](O)(O2)C(=O)C(=O)N2CCCC[C@H]2C(=O)O[C@H]([C@H](C)C[C@@H]2CC[C@@H](OC(=O)NCCOCCOCCOCCOCCOCCOCCOCCOCCC(=O)N3CCc4cc(Cn5nc(-c6ccc7oc(N)nc7c6)c6c(N)ncnc65)ccc4C3)[C@H](OC)C2)C[C@@H](O)[C@H](C)/C=C(\C)[C@@H](O)[C@@H](OC)C(=O)[C@H](C)C[C@H](C)/C=C/C=C/C=C/1C`, “dose-reducing adverse events” read 0% (phase 1 dose escalation, measured: gastric haemorrhage; advanced solid tumour patients; intravenous, 12 mg weekly, grade ≥3).
`CCCCC1(CCCC)CN(c2ccccc2)c2cc(SC)c(OCC(=O)N[C@@H](C(=O)NCC(=O)O)c3ccccc3)cc2S(=O)(=O)C1` gave a serum HDL-C of 47.5 mg/dL (measured: HDL cholesterol; human, serum; 10 mg once daily, day 14).
With `CN1CCN(S(=O)(=O)c2cc([N+](=O)[O-])ccc2N(CCOS(C)(=O)=O)CCOS(C)(=O)=O)CC1` the event-free survival was 5.5 days (NSG mice, sample CC PDX; intraperitoneal, 25 mg/kg weekly x3).
For `Fc1ccc(C(OCCN2CCN(CCCc3ccccc3)CC2)c2ccc(F)cc2)cc1`, “decay time of light-evoked dopamine release” read “increased” (mouse, nucleus accumbens; i.p., 20 mg/kg).
For `O=C1c2ccncc2C(=O)c2c1[nH]c1ccccc21`, Fulton index read “decreased” (female monocrotaline PAH rat; dose not given; reference: vehicle).
Under “patients with progressive disease”, `C=CC(=O)Nc1cc(Nc2ncc(Cl)c(Nc3ccccc3C(=O)C(=O)N(C)C)n2)c(OC)cc1N1CCN(C)CC1` is recorded as 66.7% (RECIST v1.1 best response; human EGFR T790M NSCLC; oral, 100 mg/day, per-protocol set).
`NNc1ccccc1` has a normalised absorbance of 0.907 (hydrazine ligation kinetics, absorbance; concentration not given, 40 s, with: 2-formylphenylboronic acid).
`CSCC[C@@H]1NC(=O)[C@H](Cc2c[nH]c3ccccc23)NC(=O)[C@@H](NC(=O)CCNC(=O)[C@H](CCC(N)=O)NC(=O)[C@@H]2CCCN2C(=O)[C@@H]2CCCN2C(=O)[C@H](CCCNC(=N)N)NC(=O)[C@H](CCCNC(=N)N)NC(=O)[C@H](CCCNC(=N)N)NC(=O)[C@H](CCC(N)=O)NC(=O)[C@H](CCCNC(=N)N)NC(=O)[C@H](CCCNC(=N)N)NC(=O)[C@H](CCCCN)NC(=O)[C@H](CCCCN)NC(=O)[C@H](CCCNC(=N)N)NC(=O)CN)CSSC[C@@H](C(=O)O)NC(=O)[C@H]([C@@H](C)O)NC(=O)CNC(=O)[C@H](CC(C)C)NC(=O)[C@H](Cc2c[nH]cn2)NC(=O)[C@H](CCCNC(=N)N)NC(=O)[C@@H]2CCCN2C(=O)[C@H](CO)NC1=O` gave a CDC37 staining of 0.11 IOD/area (immunohistochemistry; NCI-H226 xenograft mouse, tumour tissue; intravenous, 10 mg/kg, day 16).
Under “change in licking score”, `CCCCC/C=C\C/C=C\C/C=C\C/C=C\CCCC(=O)NCCO` is recorded as -35% (mouse, formalin paw test; intraperitoneal, 5 mg/kg, late phase; reference: vehicle, direction not given).
`C[C@]12CC[C@H](O)C[C@H]1CC[C@@H]1[C@@H]2CC[C@]2(C)[C@@H](c3ccc(=O)oc3)CC[C@]12O` has a tumour volume of 43.6 mm3 and 49.5 mm3 and 52.9 mm3 and 49.9 mm3 and 41.5 mm3 and 83.3 mm3 and 36.8 mm3 (female nude mouse LCC2 xenograft; 1.0 mg/kg, day 15, tamoxifen-resistant).
`CC[C@@H](C)[C@@H](NC(=O)[C@@H](Cc1ccc(O)cc1)NC(=O)[C@H]1CCCN1C(=O)[C@@H](CCCNC(=N)N)NC(=O)[C@H](N)Cc1c[nH]cn1)C(=O)N[C@H](C)C(=O)N[C@H](Cc1c[nH]cn1)C(=O)N[C@H](CCCNC(=N)N)C(=O)N[C@H](CCCCNC(=O)c1cccc(S(=O)(=O)F)c1)C(=O)N[C@H](Cc1ccc(O)cc1)C(=O)N[C@H](CO)C(=O)N[C@H](Cc1ccccc1)C(N)=O`: “IFN-γ+ CD8+ T cell frequency” 4.24% and 6.61% and 4.84% and 7.48% and 3.77% (ex vivo flow cytometry; B16 tumour-bearing mice, tumour-draining lymph node; dose not given).
`CC[C@H](C)[C@@H]1NC(=O)[C@@H]2CCCN2C(=O)[C@H](CC(C)C)NC(=O)[C@H](CC(C)C)NC(=O)CNC(=O)[C@@H](NC(=O)[C@@H](NC(=O)[C@H](CC(=O)O)NC(=O)CNC(=O)[C@@H](NC(=O)[C@H](C)NC(=O)CNC(=O)[C@H](CCCCN)NC(=O)[C@H](CC(C)C)NC(=O)[C@H](CC(C)C)NC(=O)[C@H](CCCCN)NC(=O)CNC(=O)[C@@H](NC(=O)[C@@H](N)CC(C)C)C(C)C)C(C)C)C(C)C)CSSC[C@@H](C(=O)O)NC1=O`: “log2 fold change” -2.64 (RNA-seq, measured: Tbc1d10c mRNA; mouse traumatic brain injury, frontal cortex and hippocampus; dose not given; reference: TBI plus compound vs TBI).
For `COc1ncc(-c2nc3c(n2C(C)C)[C@H](c2ccc(Cl)cc2)N(c2cc(Cl)cn(C)c2=O)C3=O)c(OC)n1`, “best overall response” read 66.7% (antileukemic activity, measured: treatment failure, resistant disease; human, acute myeloid leukaemia; 150 mg, high-dose, other doses).
`CCCCC1CNC2CCc3ccc(OC)cc3C12.Cl` (racemic): mRNA level “increased” (RNA sequencing, measured: complex I subunit genes; SAMP8 mice, hippocampus; intracerebroventricular, 1.0 µg/µL, 24 h; reference: vehicle).

Repeated from above:
`COc1cc2c(Oc3ccc4[nH]c(C)cc4c3F)ccnc2cc1OCC1(N)CC1`: “grade 3 sinus tachycardia” 0% (paediatric recurrent refractory sarcoma; 8 mg).
`CCCCC1CNC2CCc3ccc(OC)cc3C12.Cl` (racemic): mRNA level “increased” (RNA sequencing, measured: complex I subunit genes; SAMP8 mice, hippocampus; intracerebroventricular, 1.0 µg/µL, 24 h; reference: vehicle).
